Assay results gathered from unrelated publications.
Every numbered part comes from another study and shows a few of its results, in no order.

Set 1 — technique: protein-binding microarray; molecule type: double-stranded DNA, one strand shown; medium: in vitro; tested at: 250 nM; notes: 60-bp whole probe; with: salmon DNA 0.4 mg/ml; reference: random background probes; direction: higher = stronger binding; shared flanks, not repeated: GCCTAGCAC … GTCTTGATTCGCTTGACGCTGCTG
Target: Interferon regulatory factor 7, full length, phosphomimetic (IRF7, Homo sapiens, UniProt Q92985, residues 1-503, S101K/S471D/S472D/S475D/S476D/S477D/S483D/S484D/S487D)
UniProt Q92985, sequence (whole entry, unmodified, looked up): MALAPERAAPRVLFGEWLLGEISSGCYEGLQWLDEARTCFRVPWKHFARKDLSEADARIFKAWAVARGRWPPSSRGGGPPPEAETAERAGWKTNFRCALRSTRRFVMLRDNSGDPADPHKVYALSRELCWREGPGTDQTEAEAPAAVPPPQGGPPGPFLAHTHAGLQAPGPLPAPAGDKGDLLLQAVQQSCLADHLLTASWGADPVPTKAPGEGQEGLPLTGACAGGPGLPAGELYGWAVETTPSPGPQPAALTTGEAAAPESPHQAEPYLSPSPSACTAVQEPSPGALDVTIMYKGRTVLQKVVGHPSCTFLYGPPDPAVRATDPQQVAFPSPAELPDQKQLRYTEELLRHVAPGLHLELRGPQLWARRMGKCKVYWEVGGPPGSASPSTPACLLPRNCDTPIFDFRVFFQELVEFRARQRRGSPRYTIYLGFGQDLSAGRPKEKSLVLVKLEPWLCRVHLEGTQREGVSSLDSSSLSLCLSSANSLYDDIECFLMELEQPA
| Strand | log fluorescence |
| --- | --- |
| GACGATATCGGGTTTCGAGATGTGCTA | 3.98 z-score |
| TTAGGACTGGTTTTCCTTTAGTGCTAG | 2.13 z-score |
| TCATTTTTGTAATCGAAAACTGTGCTA | 1.49 z-score |
| TCAAAGATCATTCTCACACTGTGCTAG | -0.0308 z-score |
| CCTAGTTTTACTTTCTATGTGTGCTAG | 2.08 z-score |
| CTTGCTTTGTGCCTAGCCTTGTGCTAG | 0.2 z-score |
| TCACACATCTCACTCTAACTGTGCTAG | 0.101 z-score |
| GTCGGTTCCGGTTTCGGGACGTGCTAG | 8.63 z-score |
| TTAGGCATCGGGTATCGGTTAGTGCTA | 0.607 z-score |
| TTAGTACTGCTACTGCTTTAGTGCTAG | -0.278 z-score |
| GAGGGTTTCCTTCTCCTGACGTGCTAG | 1.26 z-score |
| CTAGGACTGCTTATCCTTTAGTGCTAG | 0.2 z-score |
| TCAGATAACTTTTTTTTACTGTGCTAG | -0.121 z-score |
| TCATCTTTTCATTTTCTACTGTGCTAG | 1.88 z-score |
| CCTCTTCTGGATCTCAGACTGTGCTAG | 0.754 z-score |
| TCAGCTCCAGGTTCTCTGACTGTGCTA | -0.541 z-score |
| TCAGCTATCACTATTCTACTGTGCTAG | -0.522 z-score |
| TCAACTTTGAATTAGAAACTGTGCTAG | 0.746 z-score |
| ATAGGTTTCCTTTCCCTTTAGTGCTAG | 4.73 z-score |

Set 2 — technique: competition protein-binding microarray; molecule type: double-stranded DNA, one strand shown; medium: in vitro; tested at: 2 µM; with: Cbf1 competitor, 0.05 µM; direction: higher = stronger binding; shared flanks, not repeated: … GTCTTGATTCGCTTGACGCTGCTG
Target: Phosphate system positive regulatory protein PHO4, full length, GST-tagged (PHO4, Saccharomyces cerevisiae, UniProt P07270, residues 1-312)
Notes: whole 60-bp probe, lowest competitor level
Residues (chain): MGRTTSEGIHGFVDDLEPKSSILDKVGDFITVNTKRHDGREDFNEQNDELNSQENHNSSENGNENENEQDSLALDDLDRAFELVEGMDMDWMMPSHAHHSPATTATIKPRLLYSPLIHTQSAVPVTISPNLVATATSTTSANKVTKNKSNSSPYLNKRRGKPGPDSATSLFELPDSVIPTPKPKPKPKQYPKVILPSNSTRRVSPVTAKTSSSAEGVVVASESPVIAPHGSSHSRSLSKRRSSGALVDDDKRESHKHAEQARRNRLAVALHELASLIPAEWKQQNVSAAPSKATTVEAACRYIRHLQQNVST
| Strand | fluorescence intensity |
| --- | --- |
| GGTTCTCAAAGCAGCAACGTGCTTTCTGCCACCGTT | 16200 a.u. |
| TTGCTGCGATTGCTGCTCGTGAAACGGAAAAAGCTA | 4430 a.u. |
| CGGGGTTAAGTTTGTAAAGTGGGTGGCTTGCAGCAG | 4810 a.u. |
| CGGGGTTAAGTTTGTATCGTGGGTGGCTTGCAGCAG | 7420 a.u. |
| CTAACGAAGGTTTCTCACGTGTTTTACAAGCCAAGT | 14400 a.u. |
| AGAAAAAAATCATCAAATGTGACGGGCAAATGGGGC | 3980 a.u. |
| AGTTGGTACCTTTTCACCGTGAGTATCGAACTTGAA | 3410 a.u. |
| ATTCACTAAGAGGCAAACATGACAACGCGGGCTCCA | 5100 a.u. |
| CTAACGAAGGTTTGCGATGTGGGTGACAAGCCAAGT | 4190 a.u. |
| TGGACATTTAAAGTAACAGTTAATTGAGAATACGGT | 3550 a.u. |
| CTTCTGTAAATTTGGCGTGTGGGTGGACGCGCCCCG | 5880 a.u. |
| TGAAACATTTTTCAACGCGTGTAACAATTTGCATCT | 8760 a.u. |
| GTCTTGTCTCATTGTCACGGGACTTTCCCCACTTCA | 6820 a.u. |
| AGCGAACTCGCTCGAAGCGTGCCGACCAGCTCCCGG | 7510 a.u. |
| AAGGCCTGGTCAACCATCGTGTAGGCGTCAAGCTTA | 7000 a.u. |
| CCTTGAAGCCCGGCGGACGTGTCTGCCGGACCGAAA | 3810 a.u. |
| ACACCATATGGTGCACCCGTGCTGTTTGTCACTGCC | 11000 a.u. |
| CCCATCCGGTAGGTGCATGTGTGCCTCTGCAGGACG | 9310 a.u. |
| ACACTTATGTGGTTCACCGTGCCGATGCTGTGTTTA | 6840 a.u. |

Set 3 — technique: RNA Bind-n-Seq; molecule type: RNA; medium: in vitro; tested at: 365 nM; reference: no-protein control; direction: higher = stronger binding
Target: RNA binding protein fox-1 homolog 2, RRM domain, GST-SBP tag (RBFOX2, Homo sapiens, UniProt O43251-10, residues 100-194)
Notes: natural RNA segment, single round, ends assumed
Shared flanks, not repeated: GGGAGUUCUACAGUCCGACGAUC … UGGAAUUCUCGGGUGCCAA
| Strand | RBNS enrichment (R) |
| --- | --- |
| GAGCCAGCCCUCCCUGUCCUCCUCGGAUCACCGAGAGUAGCCGAGAGCCUGCUCCCCCACCCCCUCCCCAGGGGAGAGGGUCUGGAGAAGCAGUGAGCCGCAUCUUCUCC | 0.942 |
| AACUGAGUGUAGAAAUCUGAAUUUUUAAAAGAGCUGUAACUAGUUGUAAGUGCUUAGGAAGAAACUUUGCAAACAUUUAAUGAGGAUACACUGUUCAUUUUUAAAAUUCC | 0.364 |
| UGUGUAUGCGCGUGUGUGCGUGUGUGUGUUUUAAUUUUCUUUAUGGAAAAUGGACAAAAAAUAGAGAGAGAGGUAUUUAACUGCAAUAAACUGGCCAGUGUGGCCCCGCC | 0.404 |
| AAACCUUAUUAGCAAAUCUUUAGAUUCUGACUUAGCCAGAGCAUCUGAGUGUUCAAGUACAGUUUUACAGUGGCUAAGGUUGUCUCUUGAUCUUUUUUCUCCGUUGUGUG | 0.461 |
| CACGGGAUAGCCUUUGCUGUGCCCUGUGGCCUGGCCGCAGUGAGGCAUGUAUCUGUAGUUCCUUGCUGAGUAACAAGAAGUAAAAUACAUGUUUGUAUAUCUACAUUUAC | 0.369 |
| GAAACAAUACACCUUUAAACAGAUGUCAAGACCAAAGAUGAUGUAUAAUAAACAGCCGGUGGUUAUGGUGUGGUGUGAGCAGGCCCCCGGAUCACCAGCCCUCUGCUGGU | 0.52 |
| UCCCGGGCAGCAAAAUACAGCCUAAGGUUUGUAAACAUCAAUUCUAUCUCAGUUCAUCAGAGGGCCUGAGAAGCUGCGGGGCAGUGUAAAGUAAAGUAUGCUGGGCUGGU | 0.804 |
| UCUACUUGCAGGUGGUUUGCUGAGCAGAGAGCUGAGGGACCCUCUUGACUGGGUAGGGGUCUUGUCCAUUUGUGGGGGAGGAUGUGGUGAAGGUGGACCUUCUACAAUCU | 0.869 |

Set 4 — technique: RNA Bind-n-Seq; molecule type: RNA; medium: in vitro; tested at: 200 nM; notes: whole 134-nt RNA, ends assumed; with: 150 mM LiCl; reference: input library; direction: higher = stronger binding; library: 7-deaza-guanosine replaces G
Target: Fragile X messenger ribonucleoprotein 1, C-terminal low-complexity region (Fmr1, Mus musculus, UniProt P35922)
Shared flanks, not repeated: GGGAGUUCUACAGUCCGACGAUC … UGGAAUUCUCGGGUGUCAAGG
| Strand | log2 enrichment |
| --- | --- |
| UAACUUUAGAGGAGGAUCUGAUGGAUAUGGCAGUGGACGUGCAUUUGGGGAUGGCUAUAAUGGGUAUGGAGGAGGACCUGGAGGUGGCAA | -0.93 |
| CCUGUGCUACACAUCGUAUGUACCGAAUCGGGGAAAAAGGGGAAAAAAAGGGGAAAGGGGAAAGUAUUAUGUUACGCCGUUCGGAUCUGC | 1.01 |
| UGGCCCUGGUGGCAUGCGGGGAGGAAGAGGUGGCCUCAUGGAUCGUGGUGGUCCCGGUGGAAUGUUCAGAUGUGGCCGUGGUGGAGACAG | -0.574 |
| CUCAAGUCCUGUGCUACACAUCGUAUGUACCGAAUCGGUUUGGUUUUUGGUGGAAAGUAUUAUGUUACGCCGUUCGGAUCUGCACUUCCA | 0.136 |
| AGUCCUGUGCUACACAUCGUAUGUACCGAAUCGGGGUUUGGGGUGGGGAAAAAGGGGAAAGUAUUAUGUUACGCCGUUCGGAUCUGCACU | -0.0949 |
| CUGUGCUACACAUCGUAUGUACCGAAUCGGCCCCCCCGGGGCCCCCCCGGGCCCCCCCGGGGAAAGUAUUAUGUUACGCCGUUCGGAUCU | -2.49 |
| GCAAGAAGUAAAAACAAAUGGAAAUGCUUCGGAUAGUGGCAGGGGUGGGGGUUGCUAAGGAAAGGGUGGGAUGGGAGUGGGUAAAGAGUU | 1.31 |
| CUGUGCUACACAUCGUAUGUACCGAAUCGGGGUUUUUGGGGAAAAAAAGGGGAAAAAGGGGAAAGUAUUAUGUUACGCCGUUCGGAUCUG | -0.492 |
